Measurements collected from several papers.
Lines come from different studies, so protocols differ. Numbers after ± are the reported error.
Method: steady-state kinetics
B1: DAO1 (Trigonopsis variabilis, UniProt Q99042); chain MAKIVVIGAGVAGLTTALQLLRKGHEVTIVSEFTPGDLSIGYTSPWAGANWLTFYDGGKLADYDAVSYPILRELARSSPEAGIRLISQRSHVLKRDLPKLEVAMSAICQRNPWFKNTVDSFEIIEDRSRIVHDDVAYLVEFRSVCIHTGVYLNWLMSQCLSLGATVVKRRVNHIKDANLLHSSGSRPDVIVNCSGLFARFLGGVEDKKMYPIRGQVVLVRNSLPFMASFSSTPEKENEDEALYIMTRFDGTSIIGGCFQPNNWSSEPDPSLTHRILSRALDRFPELTKDGPLDIVRECVGHRPGREGGPRVELEKIPGVGFVVHNYGAAGAGYQSSYGMADEAVSYVERALTRPNL
B2: YeiR (Escherichia coli, UniProt P33030); chain MTRTNLITGFLGSGKTTSILHLLAHKDPNEKWAVLVNEFGEVGIDGALLADSGALLKEIPGGCMCCVNGLPMQVGLNTLLRQGKPDRLLIEPTGLGHPKQILDLLTAPVYEPWIDLRATLCILDPRLLLDEKSASNENFRDQLAAADIIVANKSDRTTPESEQALQRWWQQNGGDRQLIHSEHGKVDGHLLDLPRRNLAELPASAAHSHQHVVKKGLAALSLPEHQRWRRSLNSGQGYQACGWIFDADTVFDTIGILEWARLAPVERVKGVLRIPEGLVRINRQGDDLHIETQNVAPPDSRIELISSSEADWNALQSALLKLRLATTA
B3: ERAP1 K528R (Homo sapiens, UniProt Q9NZ08); chain MVFLPLKWSLATMSFLLSSLLALLTVSTPSWCQSTEASPKRSDGTPFPWNKIRLPEYVIPVHYDLLIHANLTTLTFWGTTKVEITASQPTSTIILHSHHLQISRATLRKGAGERLSEEPLQVLEHPRQEQIALLAPEPLLVGLPYTVVIHYAGNLSETFHGFYKSTYRTKEGELRILASTQFEPTAARMAFPCFDEPAFKASFSIKIRREPRHLAISNMPLVKSVTVAEGLIEDHFDVTVKMSTYLVAFIISDFESVSKITKSGVKVSVYAVPDKINQADYALDAAVTLLEFYEDYFSIPYPLPKQDLAAIPDFQSGAMENWGLTTYRESALLFDAEKSSASSKLGITMTVAHELAHQWFGNLVTMEWWNDLWLNEGFAKFMEFVSVSVTHPELKVGDYFFGKCFDAMEVDALNSSHPVSTPVENPAQIREMFDDVSYDKGACILNMLREYLSADAFKSGIVQYLQKHSYKNTKNEDLWDSMASICPTDGVKGMDGFCSRSQHSSSSSHWHQEGVDVKTMMNTWTLQRGFPLITITVRGRNVHMKQEHYMKGSDGAPDTGYLWHVPLTFITSKSDMVHRFLLKTKTDVLILPEEVEWIKFNVGMNGYYIVHYEDDGWDSLTGLLKGTHTAVSSNDRASLINNAFQLVSIGKLSIEKALDLSLYLKHETEIMPVFQGLNELIPMYKLMEKRDMNEVETQFKAFLIRLLRDLIDKQTWTDEGSVSERMLRSQLLLLACVHNYQPCVQRAEGYFRKWKESNGNLSLPVDVTLAVFAVGAQSTEGWDFLYSKYQFSLSSTEKSQIEFALCRTQNKEKLQWLLDESFKGDKIKTQEFPQILTLIGRNPVGYPLAWQFLRKNWNKLVQKFELGSSSIAHMVMGTTNQFSTRTRLEEVKGFFSSLKENGSQLRCVQQTIETIEENIGWMDKNFDKIRVWLQSEKLEHDPEADATG
B4: protein (Adiantum capillus-veneris, UniProt A0A4Y6I289); chain MTDAVENKQVEFGALEVEGIKFAPSVAALGSTKQLVLGGAGFRGLEISGNLVKFTAIGIYVDEAIIPHLSPKLHGKSIEELCNNELLFEEVLAAPFEKLVRVVFLLPLTGPQYSEKVVERMGLLPNPGIKEESTKQFLEIFKPENFPPRTSLICSFTEEALKVAFMKTDDFPEDADAVIEDKWLARAFLASIIGKDGVSPLAKLSFAERMSRCL
B5: DGKE (Homo sapiens, UniProt P52429); chain MEAERRPAPGSPSEGLFADGHLILWTLCSVLLPVFITFWCSLQRSRRQLHRRDIFRKSKHGWRDTDLFSQPTYCCVCAQHILQGAFCDCCGLRVDEGCLRKADKRFQCKEIMLKNDTKVLDAMPHHWIRGNVPLCSYCMVCKQQCGCQPKLCDYRCIWCQKTVHDECMKNSLKNEKCDFGEFKNLIIPPSYLTSINQMRKDKKTDYEVLASKLGKQWTPLIILANSRSGTNMGEGLLGEFRILLNPVQVFDVTKTPPIKALQLCTLLPYYSARVLVCGGDGTVGWVLDAVDDMKIKGQEKYIPQVAVLPLGTGNDLSNTLGWGTGYAGEIPVAQVLRNVMEADGIKLDRWKVQVTNKGYYNLRKPKEFTMNNYFSVGPDALMALNFHAHREKAPSLFSSRILNKAVYLFYGTKDCLVQECKDLNKKVELELDGERVALPSLEGIIVLNIGYWGGGCRLWEGMGDETYPLARHDDGLLEVVGVYGSFHCAQIQVKLANPFRIGQAHTVRLILKCSMMPMQVDGEPWAQGPCTVTITHKTHAMMLYFSGEQTDDDISSTSDQEDIKATE
B6: carbamoyl phosphate synthetase large subunit L648E (Escherichia coli, UniProt P00968); chain PKRTDIKSILILGAGPIVIGQACEFDYSGAQACKALREEGYRVILVNSNPATIMTDPEMADATYIEPIHWEVVRKIIEKERPDAVLPTMGGQTALNCALELERQGVLEEFGVTMIGATADAIDKAEDRRRFDVAMKKIGLETARSGIAHTMEEALAVAADVGFPCIIRPSFTMGGSGGGIAYNREEFEEICARGLDLSPTKELLIDESLIGWKEYEMEVVRDKNDNCIIVCSIENFDAMGIHTGDSITVAPAQTLTDKEYQIMRNASMAVLREIGVETGGSNVQFAVNPKNGRLIVIEMNPRVSRSSALASKATGFPIAKVAAKLAVGYTLDELMNDITGGRTPASFEPSIDYVVTKIPRFNFEKFAGANDRLTTQMKSVGEVMAIGRTQQESLQKALRGLEVGATGFDPKVSLDDPEALTKIRRELKDAGADRIWYIADAFRAGLSVDGVFNLTNIDRWFLVQIEELVRLEEKVAEVGITGLNADFLRQLKRKGFADARLAKLAGVREAEIRKLRDQYDLHPVYKRVDTCAAEFATDTAYMYSTYEEECEANPSTDREKIMVLGGGPNRIGQGIEFDYCCVHASLALREDGYETIMVNCNPETVSTDYDTSDRLYFEPVTLEDVLEIVRIEKPKGVIVQYGGQTPEKLARALEAAGVPVIGTSPDAIDRAEDRERFQHAVERLKLKQPANATVTAIEMAVEKAKEIGYPLVVRPSYVLGGRAMEIVYDEADLRRYFQTAVSVSNDAPVLLDHFLDDAVEVDVDAICDGEMVLIGGIMEHIEQAGVHSGDSACSLPAYTLSQEIQDVMRQQVQKLAFELQVRGLMNVQFAVKNNEVYLIEVNPRAARTVPFVSKATGVPLAKVAARVMAGKSLAEQGVTKEVIPPYYSVKEVVLPFNKFPGVDPLLGPEMRSTGEVMGVGRTFAEAFAKAQLGSNSTMKKHGRALLSVREGDKERVVDLAAKLLKQGFELDATHGTAIVLGEAGINPRLVNKVHEGRPHIQDRIKNGEYTYIINTTSGRRAIEDSRVIRRSALQYKVHYDTTLNGGFATAMALNADATEKVISVQEMHAQIK
B7: enzyme A178R/D177A/G159A/M179S/P184R (Levilactobacillus brevis, UniProt Q03Q85); chain MKVTVVGCTHAGTFAIKQILAEHPDAEVTVYERNDVISFLSCGIALYLGGKVADPQGLFYSSPEELQKLGANVQMNHNVLAIDPDQKTVTVEDLTNHAQTTESYDKLVMTSGSWPIVPKIPGIDSDRVKLCKNWAHAQALIEDAKEAKRITVIGAGYIAAELAEAYSTTGHDVTLIARSARVMRKYFDADFTDVIEQDYRDHGVQLALGETVESFTDSATGLTIKTDKNSYETDLAILCIGFRPNTDLLKGKVDMAPNGAIITDDYMRSSNPDIFAAGDSAAVHYNPTHQNAYIPLATNAVRQGILVGKNLVKPTVKYMGTQSSSGLALYDRTIVSTGLTLAAAKQQGLNAEQVIVEDNYRPEFMPSTEPVLMSLVFDPDTHRILGGALMSKYDVSQSANTLSVCIQNENTIDDLAMVDMLFQPNFDRPFNYLNILAQAAQAKVAQSVNA
Sequence of UniProt P19337 (whole entry, looked up): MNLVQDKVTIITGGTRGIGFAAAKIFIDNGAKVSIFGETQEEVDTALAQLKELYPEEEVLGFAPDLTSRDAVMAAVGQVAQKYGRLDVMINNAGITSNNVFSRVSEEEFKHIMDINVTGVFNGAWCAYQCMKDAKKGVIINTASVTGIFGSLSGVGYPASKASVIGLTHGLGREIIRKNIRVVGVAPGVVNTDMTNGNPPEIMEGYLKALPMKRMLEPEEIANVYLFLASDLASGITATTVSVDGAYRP
Sequence of UniProt O60656 (whole entry, looked up): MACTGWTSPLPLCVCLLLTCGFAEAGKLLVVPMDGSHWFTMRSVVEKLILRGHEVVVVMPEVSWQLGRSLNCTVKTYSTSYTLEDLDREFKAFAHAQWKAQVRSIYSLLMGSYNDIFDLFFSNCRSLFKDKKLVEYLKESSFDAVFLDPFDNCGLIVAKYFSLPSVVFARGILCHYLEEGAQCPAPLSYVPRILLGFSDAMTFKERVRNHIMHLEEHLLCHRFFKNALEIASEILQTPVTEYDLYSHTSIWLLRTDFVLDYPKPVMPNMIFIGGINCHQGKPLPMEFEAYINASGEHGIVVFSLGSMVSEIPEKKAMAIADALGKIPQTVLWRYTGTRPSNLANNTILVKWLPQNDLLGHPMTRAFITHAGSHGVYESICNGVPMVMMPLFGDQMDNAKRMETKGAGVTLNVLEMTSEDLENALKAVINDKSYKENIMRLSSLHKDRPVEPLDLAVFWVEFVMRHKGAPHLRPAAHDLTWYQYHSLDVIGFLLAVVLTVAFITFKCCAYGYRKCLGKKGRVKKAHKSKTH
Sequence of UniProt P14780 (whole entry, looked up): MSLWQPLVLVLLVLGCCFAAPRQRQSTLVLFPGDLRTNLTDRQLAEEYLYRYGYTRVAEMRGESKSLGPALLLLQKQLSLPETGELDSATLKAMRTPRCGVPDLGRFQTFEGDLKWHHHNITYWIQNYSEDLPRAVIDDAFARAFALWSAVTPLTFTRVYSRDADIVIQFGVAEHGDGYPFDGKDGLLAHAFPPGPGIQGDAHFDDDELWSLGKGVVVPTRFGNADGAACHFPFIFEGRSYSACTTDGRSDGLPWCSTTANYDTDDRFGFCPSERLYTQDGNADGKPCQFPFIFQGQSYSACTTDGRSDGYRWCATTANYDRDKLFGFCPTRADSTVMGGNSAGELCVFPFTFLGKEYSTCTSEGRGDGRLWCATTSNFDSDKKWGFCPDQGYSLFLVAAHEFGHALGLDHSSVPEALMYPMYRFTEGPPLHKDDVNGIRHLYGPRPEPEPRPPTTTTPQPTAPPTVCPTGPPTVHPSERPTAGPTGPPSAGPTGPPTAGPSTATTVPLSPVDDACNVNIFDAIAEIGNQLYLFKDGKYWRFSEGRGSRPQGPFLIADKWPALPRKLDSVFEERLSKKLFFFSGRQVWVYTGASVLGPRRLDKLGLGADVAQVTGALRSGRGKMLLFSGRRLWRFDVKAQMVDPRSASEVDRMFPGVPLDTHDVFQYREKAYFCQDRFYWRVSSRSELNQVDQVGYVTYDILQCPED

Molecule	substrate	pH	temperature	notes	added	quantity	value
UGT1A9 (Homo sapiens, UniProt O60656)	COc1cc(-c2oc3cc(O)ccc3c(=O)c2O)ccc1O	pH 7.4	37 °C	–	–	Km	1.47 µM
B1 (DAO1)	CN(C)c1ccc2nc3ccc(N(C)C)c([N+](=O)[O-])c3[s+]c2c1	pH 8	22 °C	apparent	–	kcat	0.19 ± 0.008 s⁻¹
MMP9 (Homo sapiens, UniProt P14780)	CC(=O)NCC(=O)N1CCC[C@H]1C(=O)N[C@@H](CC(C)C)C(=O)NCC(=O)N[C@@H](CC(C)C)C(=O)N[C@@H](CO)C(=O)N[C@@H](CC(C)C)C(=O)NCC(=O)N[C@@H](CCCCN)C(N)=O	–	–	–	–	kcat	46.7 s⁻¹
B2 (YeiR)	Nc1nc2c(ncn2[C@@H]2O[C@H](COP(=O)(O)OP(=O)(O)OP(=O)(O)O)[C@@H](O)[C@H]2O)c(=O)[nH]1	pH 7.5	37 °C	apo, anaerobic	–	kcat	0.00317 ± 0.0005 s⁻¹
B3 (ERAP1 K528R)	CC(C)C[C@H](NC(=O)CNC(=O)[C@H](CCC(=O)O)NC(=O)[C@H](Cc1ccccc1)NC(=O)[C@H](CCCNC(=N)N)NC(=O)[C@H](CCCCN)NC(=O)[C@@H](N)Cc1ccc(O)cc1)C(=O)N[C@H](C(=O)N[C@@H](CCC(N)=O)C(=O)N[C@@H](CCCNC(=N)N)C(=O)O)[C@@H](C)O	–	25 °C	–	–	kcat	0.204 ± 0.015 s⁻¹
BaiA2 (Clostridium scindens, UniProt P19337)	C[C@H](CCC(=O)SCCNC(=O)CCNC(=O)[C@H](O)C(C)(C)COP(=O)(O)OP(=O)(O)OC[C@H]1O[C@@H](n2cnc3c(N)ncnc32)[C@H](O)[C@@H]1OP(=O)(O)O)[C@H]1CC[C@H]2[C@@H]3[C@H](O)C[C@@H]4C[C@H](O)CC[C@]4(C)[C@H]3CC[C@]12C	pH 8.7	37 °C	–	NAD+	kcat	0.2 s⁻¹
protein (Sinorhizobium meliloti, UniProt Q92WA4)	O=C(O)[C@H]1O[C@H](OP(=O)(O)OP(=O)(O)OC[C@H]2O[C@@H](n3ccc(=O)[nH]c3=O)[C@H](O)[C@@H]2O)[C@H](O)[C@@H](O)[C@@H]1O	pH 7.6	37 °C	–	NAD+ 1 mM	kcat	1.7 ± 0.1 s⁻¹
B4 (protein)	O=C(/C=C/c1ccc(O)cc1)c1ccc(O)cc1O	–	–	–	–	kcat	0.404 ± 0.0347 s⁻¹
B5 (DGKE)	CCCCC/C=C\C/C=C\C/C=C\C/C=C\CCCC(=O)O[C@@H](CO)COC(=O)CCCCCCCCCCCCCCCCC	pH 7.5	25 °C	mixed micelles, surface mole percent, not purified	0.1 mM ATP; 5 mM MgCl2	kcat	10.2 ± 0.3 s⁻¹
protein (Trichoderma virens, UniProt G9MQB8)	Nc1ccn([C@@H]2O[C@H](COP(=O)(O)OP(=O)(O)OP(=O)(O)O)[C@@H](O)[C@H]2O)c(=O)n1	pH 7.5	–	KCl 150 mM	SAM 1 mM, dithionite 5 mM	kcat	0.00108 ± 0.0001 s⁻¹
B6	Nc1ncnc2c1ncn2[C@@H]1O[C@H](COP(=O)(O)OP(=O)(O)OP(=O)(O)O)[C@@H](O)[C@H]1O	pH 7.6	–	KCl 100 mM	glutamine 10 mM, ornithine 10 mM	kcat	3.2 ± 0.2 s⁻¹
B7	NC(=O)C1=CN([C@@H]2O[C@H](COP(=O)(O)OP(=O)(O)OC[C@H]3O[C@@H](n4cnc5c(N)ncnc54)[C@H](OP(=O)(O)O)[C@@H]3O)[C@@H](O)[C@H]2O)C=CC1	pH 7.5	37 °C	per site	–	kcat	307 ± 68 s⁻¹
